Assay results pooled from the literature.
Every numbered part comes from another study and shows a few of its results, in no order.

Set 1
Target: RNA binding protein fox-1 homolog 2, RRM domain, GST-SBP tag (RBFOX2, Homo sapiens, UniProt O43251-10, residues 100-194)
Method: RNA Bind-n-Seq
Molecule type: RNA
Matrix: in vitro
Concentration: 365 nM
Notes: natural RNA segment, single round, ends assumed
Baseline: no-protein control
Reading: higher = stronger binding
Endpoint: RBNS enrichment (R)
All sequences stand within: GGGAGUUCUACAGUCCGACGAUC … UGGAAUUCUCGGGUGCCAA
Target sequence (chain): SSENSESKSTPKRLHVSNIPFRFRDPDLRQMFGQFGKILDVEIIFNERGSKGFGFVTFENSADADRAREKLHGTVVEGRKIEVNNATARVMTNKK
Strand = GACAGUCUCUGAAUAGUGGUUUUUCUAAUAAGAUGAGAUUUUUUUCUCUUGGGAAGUCACCUGUGAGAUGUCUUCUCCCUCAUCAUCCUGAGCCUUAUCUAAUCCAGGUA; result = 0.235
Strand = CAGACGACUGAGCCGGGGAGCAGCAAUGUUGUAUGGGCUACGCGGCCCAUGGCCGUGGGUCUCCUCGCUGAGCUGCAACCUGAUGCAUCGACAUUUAAUGUUGGCAGUGU; result = 0.24
Strand = ACUGUUGUUUAUUGUUGAAUCUGUGUGUCAGCCAGGAGAGCGCUGUCUGGCCUUGAACAUGGGCUGGGAUGGGAAAGGGUCUGGGAGAAGAUGGGCAACAAAGAGCCAGG; result = 0.811
Strand = AACACUGUUGUGGUAUGUAUGCUACCUUGAUUAUAGGACCCCCUAAAUGUGACUAUAGUCAUCUUAAUGGGCAUCUUGUCCACUGUGCUUCUUAUGUAUUAUGAAAGUGA; result = 0.666
Strand = CUCUCUUCUAGGGCUUCCCACCAUCAGCCCCUCCCACUUGAGACUGGUCUUUGGGAGGCAAUAGGCCACCAUGCCUGGUCAGCACCAAUUCAAGCCAUGCCAGGAAUCUG; result = 0.357
Strand = GAGAGAGGGGAAGGAAAUGGAACAAGUUGUGUUUGUGUUAGCAUGUGGGUGAUGUAAACUUCAAAUUGGGAGAUGUUCCGACCCCCACUCCCAUAUAAGCAUUCAAUCAG; result = 20.3
Strand = GCCUCUUCUCCUUGGGUCUUGGGGUGGGUUAGAACUGGGUUCCAGUCUGGCCAGAUGGGUUGCUGGCUGCACUGAGGGUGAUUCUUCUCAGAAGAUGGGCUGCCUGUGGU; result = 0.799
Strand = AUGUGGAUGGCCUGGGGACUCCUGGGUUUUCUCCCUCCCGACUCCCUAAUAAACCCCGUGAACCUUGGAGCCAGCACAGACUGUACUUAUGUCUGGGCUGGGGGUGGGGG; result = 0.389
Strand = AAAAGAAUAUUAAAUGCCUUUGGAAACAUGAAACAAAGUUAGGAGCCAGUAAGAAAGUGACAGAAGCAAUGAAUGUCUUAAUGCAGUAUAGUUAAAAUGGCUUCCCACAG; result = 1.49
Strand = ACCACCACCCCACGUAGCUGCUCACACCAGCCUCCGGGUGCCUCCCUCUGCUUGUACAGAGCCCAUGGUCGGGACAGUGCCCUGGCCUUUGCCGGGGAGGAGGAUGCUCU; result = 0.219
Strand = UAAACCCUAAUGUUAGAUGUCAGUAUAAAGCCCUUAGAAUUUUUCCUCAAGGACCCCUUCUUCCUUUAGGCCUUUCUGUCUUGAUCUGUGCAUUAAGAAAUUUAAGUUUG; result = 0.418
Strand = AGGUAAUGGGGCCACCUGCUUGACACAUUGUGACGGAACCGACACCAAAGCUGAGGUCCCCUUGAUCAUGAACUCCAUAAAAUCCUUUUCUGACCACGCUCAAUGUGGAA; result = 0.358

Set 2
Target: Phosphate system positive regulatory protein PHO4, full length, GST-tagged (PHO4, Saccharomyces cerevisiae, UniProt P07270, residues 1-312)
Method: competition protein-binding microarray
Molecule type: double-stranded DNA, one strand shown
Matrix: in vitro
Concentration: 2 µM
Notes: whole 60-bp probe, lowest competitor level
Together with: Cbf1 competitor, 0.05 µM
Reading: higher = stronger binding
Endpoint: fluorescence intensity
All sequences stand within: … GTCTTGATTCGCTTGACGCTGCTG
Construct (chain): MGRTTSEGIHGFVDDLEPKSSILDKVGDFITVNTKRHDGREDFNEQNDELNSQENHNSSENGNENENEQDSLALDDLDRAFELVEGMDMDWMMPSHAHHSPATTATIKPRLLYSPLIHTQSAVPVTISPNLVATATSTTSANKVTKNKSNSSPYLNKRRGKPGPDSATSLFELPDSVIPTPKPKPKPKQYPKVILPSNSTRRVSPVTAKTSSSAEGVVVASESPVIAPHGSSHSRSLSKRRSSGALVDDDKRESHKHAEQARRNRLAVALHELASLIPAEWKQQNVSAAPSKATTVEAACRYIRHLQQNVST
Strand = CGTCCTAGTGATTTTCACGTGTGTTCCATGAGGAAG; result = 11800 a.u.
Strand = AAATTACTAAGTTGTGATGTGGGTGACGCCGTATGA; result = 4370 a.u.
Strand = GAGGTACCGATAGATCTCGTGGTGATGGTTACGTTG; result = 9220 a.u.
Strand = CTTCTGTAAATTTGAGCGGTGGGTGGACGCGCCCCG; result = 4500 a.u.
Strand = AAAGCAAGAACCCTTCACATGTCAAACCTGAACGCA; result = 6050 a.u.
Strand = CTAAATCTGCGTTAGCTCGTGGTGAGTATTTGCGCG; result = 10700 a.u.
Strand = TTTATATTCTTGTTCCTCGTGGCCGAATGGTTACGG; result = 13100 a.u.
Strand = ATCATGTTCAGAACAACCGTGATGGAGAAAATGGAG; result = 7480 a.u.
Strand = GCCATGTTTATTAAACTCGTGTATCCATAAGGACTC; result = 9480 a.u.
Strand = AAATTACTAAGTTGATGTGTGGGTGACGCCGTATGA; result = 5480 a.u.
Strand = AAGGTTTCGCCGTAGAACGTGCTTTCCAGTTCATGG; result = 14600 a.u.
Strand = ATTCATGTTTGGCTACTCGTGCTTTCTTCGAAGAAT; result = 11800 a.u.
Strand = CGGGGTTAAGTTTGTCACCGTACTTGCTTGCAGCAG; result = 3760 a.u.
Strand = CTTTCCCGATCTTGTCACACCACTTTAGCACATTTG; result = 5670 a.u.
Strand = CAACCAACTGACGAAACCGTGATGGTCATTAGAACT; result = 5480 a.u.
Strand = AAAGCGGTAATTTGTGCGGTGGGTGCAGATATCTAT; result = 4710 a.u.
Strand = CGGGGTTAAGTTTGTCTGGTGGGTGGCTTGCAGCAG; result = 4650 a.u.
Strand = CGTTGTCTGAGCAGGAATAAAGAGTTAAGAATATAG; result = 4280 a.u.
Strand = TAAGATCGTCAGTTTCACGTTCGCGGTTCGAACATG; result = 7150 a.u.
Strand = GCAGCCGCAGCGAGTCACGTGGTCGCGCAAATGATG; result = 19200 a.u.
Strand = CTTTCCCGATCTTGGATGGTGGGTGTAGCACATTTG; result = 4430 a.u.
Strand = AAATTACTAAGTTGCAAAGTGGGTGACGCCGTATGA; result = 4120 a.u.
Strand = TGACCATTGACTTTGAACGTGGTCGTCCAGTAAAGT; result = 10500 a.u.
Strand = GCATCAGATTCTTGTCATGCTTGTTCAATATACATC; result = 4480 a.u.

Set 3
Target: Prothrombin, mature alpha-thrombin (F2, Homo sapiens, UniProt P00734)
Method: aptamer microarray, sandwich
Molecule type: DNA with 2'F-ANA
Matrix: in vitro
Concentration: 200 nM
Notes: whole 15-mer aptamer, many near background
Together with: Cy3 exosite-II aptamer, 400 nM
Reading: higher = stronger binding
Endpoint: mean fluorescence intensity
Strand: GGTTGGTGTGGTTGG
Modification = 2'F-ANA at 3 4 6 8 12 13 15; result = 669 a.u.
Modification = 2'F-ANA at 1 2 7 8 11 12 13 15; result = 261 a.u.
Modification = 2'F-ANA at 3 5 8 9 10; result = 57.7 a.u.
Modification = 2'F-ANA at 3 6 7 8 14; result = 644 a.u.
Modification = 2'F-ANA at 3 4 5 8 10 12 13 14; result = 47 a.u.
Modification = 2'F-ANA at 1 3 8 9 10 11 12 13; result = 101 a.u.
Modification = 2'F-ANA at 4 6 8 9 12 15; result = 472 a.u.
Modification = 2'F-ANA at 3 5 8 9 10 11 12; result = 69.3 a.u.
Modification = 2'F-ANA at 1 2 3 4 5 6 8 9 12 13; result = 105 a.u.
Modification = 2'F-ANA at 2 3 4 6 7 8 9 11 14 15; result = 213 a.u.
Modification = 2'F-ANA at 2 6 7 8 9 13 15; result = 294 a.u.
Modification = 2'F-ANA at 1 3 6 7 11 13 14; result = 112 a.u.
Modification = 2'F-ANA at 1 2 7 8 11 13 14 15; result = 73.6 a.u.
Modification = 2'F-ANA at 3 4 8 11 12; result = 842 a.u.
Modification = 2'F-ANA at 1 2 3 4 8 9 12 13; result = 256 a.u.
Modification = 2'F-ANA at 3 8 10 11 12 13; result = 547 a.u.
Modification = 2'F-ANA at 5 8 13 14 15; result = 46.7 a.u.
Modification = 2'F-ANA at 1 9 10 11 14 15; result = 50.5 a.u.
Modification = 2'F-ANA at 2 3 4 6 7 8 9 10 14 15; result = 154 a.u.
Modification = 2'F-ANA at 1 2 3 8 9 10 12 13 14 15; result = 55.4 a.u.

Set 4
Target: Histone acetyltransferase KAT6A, both winged helices, GST fusion (KAT6A, Homo sapiens, UniProt Q92794, residues 1-181)
Method: protein binding microarray
Molecule type: double-stranded DNA, one strand shown
Matrix: in vitro
Concentration: not given
Notes: 8-mer, flanks averaged, mean of 2 arrays, mostly near background
Baseline: not given
Reading: higher = stronger binding
Endpoint: E-score
Construct (chain): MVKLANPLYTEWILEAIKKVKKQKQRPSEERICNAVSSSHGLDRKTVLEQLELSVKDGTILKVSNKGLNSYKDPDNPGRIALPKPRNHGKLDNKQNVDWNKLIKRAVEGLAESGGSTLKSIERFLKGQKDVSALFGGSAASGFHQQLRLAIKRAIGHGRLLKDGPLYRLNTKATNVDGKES
Strand = AAATGGTT; result = -0.0238
Strand = ATCTTTAA; result = 0.0554
Strand = CCGCCAAA; result = 0.209
Strand = TATGTTCA; result = -0.0066
Strand = AGATAGCG; result = 0.0554
Strand = GCCTGCAC; result = -0.0741
Strand = ACTCAGCT; result = -0.0861
Strand = CACGCCTA; result = 0.00666
Strand = CGGATTGA; result = 0.155
Strand = CAACGATA; result = -0.0206
Strand = ACATGGCT; result = -0.166
Strand = CTGAACAG; result = -0.181
Strand = CACTCTTA; result = -0.191
Strand = AATCCGGC; result = 0.0811
Strand = AAGACACA; result = -0.142
Strand = CCATACAA; result = -0.221
Strand = CGTCGCCA; result = 0.116
Strand = CTTCCTAC; result = -0.162
Strand = AAATACGC; result = 0.185
Strand = TGGAACAA; result = -0.209
Strand = CCGATTGA; result = 0.0351
Strand = CAGCTCGC; result = -0.0549
Strand = ACCGTACT; result = 0.144
Strand = GATGTAGC; result = -0.0598
Strand = TAACAGAA; result = -0.116

A few entries again (set 2):
Strand = CGGGGTTAAGTTTGTCACCGTACTTGCTTGCAGCAG; result = 3760 a.u.
Strand = CTTTCCCGATCTTGTCACACCACTTTAGCACATTTG; result = 5670 a.u.
Strand = CAACCAACTGACGAAACCGTGATGGTCATTAGAACT; result = 5480 a.u.
Strand = AAAGCGGTAATTTGTGCGGTGGGTGCAGATATCTAT; result = 4710 a.u.
Strand = CGGGGTTAAGTTTGTCTGGTGGGTGGCTTGCAGCAG; result = 4650 a.u.
Strand = CGTTGTCTGAGCAGGAATAAAGAGTTAAGAATATAG; result = 4280 a.u.
Strand = TAAGATCGTCAGTTTCACGTTCGCGGTTCGAACATG; result = 7150 a.u.
Strand = GCAGCCGCAGCGAGTCACGTGGTCGCGCAAATGATG; result = 19200 a.u.
